Experimental data from different studies.
Protocols differ between the studies behind these lines. “And” joins repeats or separate records; there may be more than shown. Numbers after ± are the reported error.

CCOC(=O)C1(Cc2ccccc2)Oc2cc(F)ccc2N(Cc2ccccc2)C1=O (stereo not shown) — inhibition (HaCaT; cell growth or viability, CCK-8; 50 µM, 72 h): 0.51%
CC[C@H](C)[C@H](NC(=O)CNC(=O)[C@H](CC(=O)O)NC(=O)[C@H](CO)NC(=O)[C@@H](N)Cc1c[nH]cn1)C(=O)N[C@@H](Cc1ccccc1)C(=O)N[C@H](C(=O)N[C@@H](CC(=O)O)C(=O)N[C@@H](CO)C(=O)N[C@@H](Cc1ccc(O)cc1)C(=O)N[C@@H](CO)C(=O)N[C@@H](CCCNC(=N)N)C(=O)N[C@@H](Cc1ccc(O)cc1)C(=O)N[C@@H](CCCNC(=N)N)C(=O)N[C@@H](CCCCN)C(=O)N[C@@H](CCC(N)=O)C(=O)N[C@@H](CCSC)C(=O)N[C@@H](C)C(=O)N[C@H](C(=O)N[C@@H](CCCCN)C(=O)N[C@@H](CCCCN)C(=O)N[C@@H](Cc1ccc(O)cc1)C(=O)N[C@@H](CC(C)C)C(=O)N[C@@H](C)C(=O)N[C@@H](C)C(=O)N[C@H](C(=O)N[C@@H](CC(C)C)C(=O)NCC(=O)N[C@@H](CCCCN)C(=O)N[C@@H](CCCNC(=N)N)C(=O)N[C@@H](Cc1ccc(O)cc1)C(=O)N[C@@H](CCCCN)C(=O)N[C@@H](CCC(N)=O)C(=O)N[C@@H](CCCNC(=N)N)C(=O)N[C@H](C(=O)N[C@@H](CCCCN)C(=O)N[C@@H](CC(N)=O)C(=O)N[C@@H](CCCCN)C(N)=O)C(C)C)C(C)C)C(C)C)[C@@H](C)O — EC50 (BON; serotonin release, ELISA; 20 min, 37 °C): ~0.1 µM
O=C(C[Se]C(=O)c1cccs1)Nc1cccc(C(F)(F)F)c1 — GI50 (NCI60 CNS cancer panel; five-dose screen): 1.71 µM
C#CCN1C(=O)C(CC#C)(C(=O)OCC)Oc2ccccc21 (stereo not shown) — inhibition (HaCaT; cell growth or viability, CCK-8; 3.13 µM, 72 h): 0.34%
CSCC[C@H](NC(=O)[C@@H](NC(=O)[C@H](CCC(N)=O)NC(=O)[C@H](CO)NC(=O)[C@@H](N)C(C)C)[C@@H](C)O)C(=O)N[C@@H](CCCNC(=N)N)C(=O)N[C@@H](CCC(N)=O)C(=O)N[C@H](C(=O)N[C@@H](C)C(=O)N[C@H](C(=O)N1CCC[C@H]1C(=O)N[C@@H](CC(C)C)C(=O)N[C@@H](CC(C)C)C(=O)N[C@@H](Cc1c[nH]c2ccccc12)C(=O)N[C@@H](Cc1ccccc1)C(=O)N[C@@H](Cc1c[nH]c2ccccc12)C(=O)N[C@H](C(=O)NCC(=O)N[C@@H](CO)C(=O)N[C@@H](CC(C)C)C(=O)NCCOCCOCCOCCOCCOCCOCCOCCOCCOCCOCCOCCOCCC(=O)N[C@@H](CS)C(N)=O)[C@@H](C)O)C(C)C)[C@@H](C)O — selectivity ratio (HCC366 lung adenosquamous carcinoma; cell binding, phage binding, item: output/input phage; 10 min, 37 °C; reference: control phage): 8.5 ± 4
CC[C@H](C)[C@H](NC(=O)CNC(=O)[C@H](Cc1ccc(O)cc1)NC(=O)[C@H](CO)NC(=O)[C@H](Cc1ccc(O)cc1)NC(=O)[C@@H](NC(=O)[C@H](CC(=O)O)NC(=O)[C@H](CO)NC(=O)[C@H](CCC(N)=O)NC(=O)[C@H](Cc1ccccc1)NC(=O)[C@H](CO)NC(=O)[C@H](Cc1ccccc1)NC(=O)[C@@H]1CCCN1C(=O)[C@H](CC(N)=O)NC(=O)[C@H](CC(N)=O)NC(=O)[C@H](CC(=O)O)NC(=O)[C@H](CCC(N)=O)NC(=O)[C@@H]1CCCN1C(=O)[C@H](CCCNC(=N)N)NC(=O)[C@H](CCCNC(=N)N)NC(=O)[C@H](CCCNC(=N)N)NC(=O)[C@H](CCC(N)=O)NC(=O)[C@H](CCCNC(=N)N)NC(=O)[C@H](CCCNC(=N)N)NC(=O)[C@H](CCCCN)NC(=O)[C@H](CCCCN)NC(=O)[C@H](CCCNC(=N)N)NC(=O)CN)C(C)C)C(=O)N[C@H](C(=O)N[C@@H](CC(C)C)C(N)=O)C(C)C — phospho-MEK1/2 level (MCF7; immunoblot densitometry, item: phospho-MEK1/2 Ser217/221; 50 µM, 48 h, unit not given; reference: 0 µM): 0.388 and 0.275
O=C(O)c1ccc(-c2nc(-c3ccccc3Cl)c3sccn23)cc1 — mean fluorescence intensity (HEL; flow cytometry, item: surface CD61; 0.01 mM; higher = more expression): 31600 a.u.
CC(C)C[C@H](NC(=O)[C@H](CC(=O)O)NC(=O)CNC(=O)[C@@H](N)CCCNC(=N)N)C(=O)N[C@@H](C)C(=O)N[C@H](C(=O)N[C@@H](CC(C)C)C(=O)N[C@@H](CCCNC(=N)N)C(=O)N[C@@H](CCC(N)=O)C(=O)N[C@@H](CC(C)C)C(=O)N[C@@H](C)C(=O)N[C@@H](CCC(N)=O)C(=O)N[C@@H](CCC(=O)O)C(=O)N[C@@H](CC(=O)O)C(=O)NCC(=O)N[C@H](C(=O)N[C@H](C(=O)NCC(=O)N[C@H](C(=O)N[C@@H](CCCNC(=N)N)C(=O)NCCOCCOCCOCCOCCOCCOCCOCCOCCOCCOCCOCCOCCC(=O)N[C@@H](CS)C(N)=O)C(C)C)C(C)C)C(C)C)[C@@H](C)O — selectivity ratio (HCC366 lung adenosquamous carcinoma; cell binding, phage binding, item: output/input phage; 10 min, 37 °C; reference: control phage): 3.5 ± 1.4
Cc1cc(Oc2nc(N3CC[C@@H](c4ccncc4)C3)ncc2F)[nH]n1 — IC50 (U2OS; cell proliferation; bone cancer): > 100 µM
CC1CCC2C(C)C(OC(=O)CCC(=O)N3CCC(Nc4ccc(S(=O)(=O)NC(=O)c5ccc(N6CCN(CC7=C(c8ccc(Cl)cc8)CC(C)(C)CC7)CC6)cc5Oc5cnc6[nH]ccc6c5)cc4[N+](=O)[O-])CC3)OC3OC4(C)CCC1C32OO4 (stereo not shown) — viable cells (THP-1; annexin V/PI flow cytometry, item: annexin V-/PI-; 1.6 µM, 24 h): 20.4%
O=C1NC2(CC2)COc2ncc(F)cc2[C@H]2COCCN2c2ccn3ncc1c3n2 — epididymis weight (Sprague-Dawley rat, male, epididymides; oral, 5 mg/kg/day, end of treatment, 4-week repeated-dose toxicity): 1.03 ± 0.066 g
C#CCNC(=O)c1ccc(S(=O)(=O)N[C@@H](CCCCNC(C)=S)C(=O)N[C@@H](CCCNC(=N)N)C(=O)N[C@@H](CC2CCCCC2)C(=O)N[C@H](CCCCN)C(=O)N[C@@H](CC2CCCCC2)C(=O)N[C@H](CCCNC(=N)N)C(=O)N[C@@H](CC2CCCCC2)C(N)=O)cc1 — EC50 (HEK-293T; cell growth or viability, MTT; 72 h): 48 µM
CC(=O)NCSC[C@H](NC(=O)[C@@H]1CCCN1C(=O)[C@H](C)NC(=O)[C@@H](NC(=O)CNC(=O)[C@@H](NC(=O)[C@H](Cc1c[nH]c2ccccc12)NC(=O)[C@H](C)NC(=O)CNC(=O)[C@H](CO)NC(=O)[C@H](C)NC(=O)[C@@H]1CCCN1C(=O)[C@H](Cc1c[nH]c2ccccc12)NC(=O)[C@H](C)NC(=O)[C@H](C)NC(=O)[C@@H](N)Cc1ccc(O)cc1)[C@@H](C)O)[C@@H](C)O)C(=O)N[C@@H](CO)C(=O)N[C@@H](C)C(=O)NCC(=O)N[C@H](C(=O)NCCOCCOCCOCCOCCOCCOCCOCCOCCOCCOCCOCCOCCC(=O)N[C@@H](CS)C(N)=O)[C@@H](C)O — selectivity ratio (H2009; phage binding; 10 min, 37 °C; reference: control phage): 310 ± 140
COc1ccc(NC(=O)c2ccc3[nH]c(-c4ccc(N(C)C)cc4)nc3c2)cn1 — PI-positive cells (HCT116; IncuCyte; concentration not given, 20 (unit not given)): 71.8 count and 129 count and 95.8 count
CC(C)CC(O)(CC(C)C)c1cn(C(=O)N2CCCC2)nn1 — SILAC ratio (mouse T-cells; N-terminal labelling enrichment, item: Zfp91 N-terminal peptides; 1 nM, 6 h, protein median; reference: DMSO): 0.93
CC(C)(C)C(=O)OCOP(=O)(OCOC(=O)C(C)(C)C)C1CCCN(O)C1=O (stereo not shown) — GI50 (MDA-MB-435): 0.955 µM
N#Cc1cccc(-c2ccc(=O)n(Cc3cccc(-c4ncc(OCC5CCN(CC(=O)N6CCN(c7ccc8c(c7)C(=O)N(C7CCC(=O)NC7=O)C8=O)CC6)CC5)cn4)c3)n2)c1 (stereo not shown) — protein level fold change (EBC-1; label-free proteomics, item: DHX30; concentration not given; reference: control): -2.57
COc1ccccc1-c1ccncc1C(=O)Nc1nnc(OCc2ccc(Cl)cc2)s1 — colony survival (DLD-1 parental; 2 µM; reference: untreated): 98.6% and 95.2% and 97%
CSc1ccc2c(c1)c(CCN)c(C)n2Cc1ccccc1Cl — EC50 (BV-2; phagocytosis, high-content imaging; geometric mean, together with: pHrodo-myelin uptake): 0.9 µM
CC(C)C12OC1C1OC13C1(C)CCC4=C(COC4=O)C1CC1OC13C2OC(=O)CCCOC1OC(CO)C(O)C(O)C1O (stereo not shown) — IC50 (primary mammary epithelial cells; cell viability, XTT; 47 h): 4.31 µM
CC(C)[C@H](NC(=O)[C@H](CCCNC(=N)N)NC(=O)[C@@H]1CCCN1C(=O)[C@@H](NC(=O)[C@H](C)NC(=O)[C@H](Cc1ccc(O)cc1)NC(=O)[C@H](CCC(N)=O)NC(=O)[C@H](CCCCN)NC(=O)[C@H](CCCNC(=N)N)NC(=O)[C@@H]1CCCN1C(=O)[C@H](CCC(=O)O)NC(=O)[C@@H](NC(=O)[C@H](C)N)[C@@H](C)O)[C@@H](C)O)C(=O)N[C@@H](Cc1ccccc1)C(=O)N[C@@H](Cc1c[nH]c2ccccc12)C(=O)N[C@H](C(=O)N[C@@H](CC(=O)O)C(=O)N[C@@H](C)C(=O)N1CCC[C@H]1C(=O)NCC(=O)NCCOCCOCCOCCOCCOCCOCCOCCOCCOCCOCCOCCOCCC(=O)N[C@@H](CS)C(N)=O)[C@@H](C)O — selectivity ratio (H1819; phage binding; 10 min, 37 °C; reference: control phage): 0.96 ± 0.098
CNC(=S)N/N=C/c1ccc(OCc2ccccc2)cc1 — glutathione peroxidase activity (OD450) (IMR-32; item: GPX3; 500 µg/mL, 24 h; higher = more activity): 0.148 a.u.
C=CCN1C(=O)C(CC=C)(C(=O)OCC)Oc2cc(F)ccc21 (stereo not shown) — inhibition (HaCaT; cell growth or viability, CCK-8; 25 µM, 72 h): 0.53%
NC(=O)N/N=C/c1ccc(OCc2cccc(F)c2)cc1 — glutathione peroxidase activity (OD450) (IMR-32; item: GPX3; 50 µg/mL, 24 h; higher = more activity): 0.021 a.u.
CC(C)C12OC1C1OC13C1(C)CCC4=C(COC4=O)C1CC1OC13C2OC(=O)CCC(=O)OC1OC(CO)C(O)C(O)C1O (stereo not shown) — IC50 (SW1990; cell growth or viability, XTT; 47 h): 1.52 µM

A few entries again:
NC(=O)N/N=C/c1ccc(OCc2cccc(F)c2)cc1 — glutathione peroxidase activity (OD450) (IMR-32; item: GPX3; 50 µg/mL, 24 h; higher = more activity): 0.021 a.u.
CC(C)C12OC1C1OC13C1(C)CCC4=C(COC4=O)C1CC1OC13C2OC(=O)CCC(=O)OC1OC(CO)C(O)C(O)C1O (stereo not shown) — IC50 (SW1990; cell growth or viability, XTT; 47 h): 1.52 µM
